Experimental data pooled from the literature.
Lines come from different studies, so protocols differ. Values joined by “and” are separate records of one study, mostly repeats; a detail may differ.

`Cc1ncnc2c1ccn2[C@@H]1C[C@H](Oc2cc(C(F)F)c(F)c3c2CNCC3)[C@@H](O)[C@H]1O` has a CL/F of 10.1 L/h and 4.97 L/h (human; oral, 1 mg twice daily).
Under “CL/F at steady state”, `Cn1ncnc1[C@H]1c2n[nH]c(=O)c3cc(F)cc(c23)N[C@@H]1c1ccc(F)cc1` is recorded as 3.2 L/h/m2 (human patients, plasma; oral, 600 µg/m2 twice daily day 1, day 5, dose level DL4, median, added: temozolomide 30 mg/m2 daily days 2-6).
`N#Cc1ccc2c(c1)[C@H]1CCCN(C(=O)c3ccc4[nH]cnc4c3)[C@H]1C2` — result for “CL/F steady state”: 82.2 mL/min (human, plasma; oral, 240 mg once daily, day 28 steady state).
The CL/F reduction of `CC(C)Nc1nc2cc(Cl)c(Cl)cc2n1[C@H]1O[C@@H](CO)[C@H](O)[C@@H]1O` is reported as 29% (population PK model; human; oral, dose not given, added: strong CYP3A4 inhibitors).
With `Cn1cncc1[C@@](N)(c1ccc(Cl)cc1)c1ccc2c(c1)c(-c1cccc(Cl)c1)cc(=O)n2C` the CL/F was 733 mL/min/m2 (human patients; oral, 300 mg/m2, first dose, cycle 1, expanded cohort, median).
`CC1(COc2ccc3c(c2)ncn3-c2ccc3cccc(N4CCC(N)CC4)c3n2)COC1` gave a CL/F of 48.7 L/h/m² (human patients, recurrent/progressive HGG or DIPG, serum; oral, 130 mg/m^2, day 1, median).
`Cn1cc(-c2cn3nccc3c(-c3cnn([C@]4(CC#N)C[C@@H](C#N)C4)c3)n2)cn1` gave a CL/F of 99.5 L/h (healthy human fed; 200 mg twice daily, day 10).
For `CCn1cc(C(=O)N2CCOCC2)c(=O)c2cc(NC3Cc4ccccc4C3)cnc21`, the CL/F was 58.8 L/h (human, fed; oral suspension, 1200 mg/day twice daily, day 8, arithmetic mean).
`C[C@@H](Oc1ccc(S(C)(=O)=O)cc1C(=O)N1C[C@@H]2C[C@]2(c2cc(C(F)(F)F)on2)C1)C(F)(F)F` gave a CL/F of 5.14 L/h (healthy young humans; oral, 10 mg single dose).
For `C#C[C@]1(CO)O[C@@H](n2cnc3c(N)nc(F)nc32)C[C@@H]1O`, the CL/F was 29.3 L/h (human, plasma; oral, 100 mg, single dose, geometric mean).

Some of these lines once more:
`Cn1cc(-c2cn3nccc3c(-c3cnn([C@]4(CC#N)C[C@@H](C#N)C4)c3)n2)cn1` gave a CL/F of 99.5 L/h (healthy human fed; 200 mg twice daily, day 10).
